# Experimental data collected from several papers.
# Every numbered part comes from another study and shows a few of its results, in no order. Positions count from the first letter of the parent shown.

# Series 1
# Target: Interferon regulatory factor 5, full length, phosphomimetic (IRF5, Homo sapiens, UniProt Q13568-2, residues 1-514, K96S/S451D/S453D/S456D/S462D)
# Method: protein-binding microarray
# Molecule type: double-stranded DNA, one strand shown
# Sample: in vitro
# Concentration: 250 nM
# Setting: 60-bp whole probe
# Added: salmon DNA 0.4 mg/ml
# Reference: random background probes
# Direction: higher = stronger binding
# Constant ends, left off below: GCCTAGCAC … GTCTTGATTCGCTTGACGCTGCTG
Strand,log fluorescence [z-score]
TCATCACTCTGTCCCTCACTGTGCTAG,0.427
GACGGTTTCCTGCTGCTGACGTGCTAG,0.338
AACGAACTGAGTCTCGAGACGTGCTAG,-0.0574
GACGATCTCACTTTCGAGACGTGCTAG,6.41
TTAGATATCGGTCTCGATTAGTGCTAG,5.21
TTAGAACTGTGTCTCGATTAGTGCTAG,0.493
TTAGGTTTCGACACTGTGTTAGTGCTA,6.3
TTAGATTTCTGTTCCGATTAGTGCTAG,3.45
TTAGATTTCAGAATGGATTAGTGCTAG,0.909
GACGAACTGGTGTTTCGAGACGTGCTA,1.31
GTCGGACTGGGGTATCGGGACGTGCTA,-0.0162
TCACCTTTCTCAACCTCACTGTGCTAG,0.864
GACGGTAACGGTTTCGGGACGTGCTAG,2.91
GACGGAATGGGTCTCGGGACGTGCTAG,-0.327
TCACTTTGCCTTTTGCTACTGTGCTAG,0.75
TTAGGACTGCTTATCCTGTAGTGCTAG,-0.343
AAGTGTTTGGTGTCTTTTGTGGTGCTA,0.0123
CTGGCCTGGGGTCTGCAGAGGTGCTAG,-0.803
GAGGGTCTCGGACTGGGGACGTGCTAG,-0.363
GACGGTATCCTTATCCTGTCGTGCTAG,0.207
GACGGACTGCTTCTGCTGACGTGCTAG,-0.707
TTAGGTTCAGGTTTCGGTTAGTGCTAG,8.11
TCATTTTTCATTATTGTACTGTGCTAG,1.87
GACGGACTGCTTAGCCTGACGTGCTAG,-0.815
TCATTACTTTCTATCTCACTGTGCTAG,5.59

# Series 2
# Target: CCNE1, cyclin fold, Cln2 fusion (human)
# Method: yeast growth competition, sequencing
# Sample: yeast
# Setting: strong parent motif
# Reference: not given
# Direction: higher = stronger binding
# Starting sequence: PLK5 docking peptide (human); IFRKVGQRLLTQC
Change,normalised enrichment score
K4A,1.19
I1A,0.992
F2A,0.872
L10A,0.545
R3A,1.03
G6A,1.05
V5A,0.559

# Series 3
# Target: CEBPE, bZIP domain (human)
# Method: DHFR protein complementation
# Sample: yeast
# Setting: single substitutions, most at no-binding floor
# Reference: wild-type JUN-FOS pair
# Direction: higher = stronger binding
# Starting sequence: JUN, bZIP domain (human); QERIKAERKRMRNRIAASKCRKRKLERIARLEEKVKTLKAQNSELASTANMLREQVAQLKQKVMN; partner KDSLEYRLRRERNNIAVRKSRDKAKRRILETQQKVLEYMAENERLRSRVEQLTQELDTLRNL
Change,binding fitness
Q41Y,-1.45 natural log
A57P,-1.53 natural log
R30P,-1.37 natural log
L31N,-1.42 natural log
L52D,-1.42 natural log
L31T,-1.44 natural log
V56L,-1.23 natural log
L52V,-1.42 natural log
S43M,-1.01 natural log
L45K,-1.48 natural log
M51N,-1.09 natural log
E33K,-1.19 natural log
M51D,-1.11 natural log
E32V,-1.35 natural log
E54W,-1.36 natural log
R30M,-1.09 natural log
A40G,-1.39 natural log

# Series 4
# Target: ABI1, truncated, D143A, DHFR fusion (Arabidopsis thaliana)
# Method: DHFR PCA, deep sequencing
# Sample: yeast
# Setting: methotrexate growth selection, single substitutions
# Added: (+)-ABA 58 µM
# Reference: wild-type fitted maximum
# Direction: higher = stronger binding
# Starting sequence: PYL1, truncated, DHFR fusion (Arabidopsis thaliana); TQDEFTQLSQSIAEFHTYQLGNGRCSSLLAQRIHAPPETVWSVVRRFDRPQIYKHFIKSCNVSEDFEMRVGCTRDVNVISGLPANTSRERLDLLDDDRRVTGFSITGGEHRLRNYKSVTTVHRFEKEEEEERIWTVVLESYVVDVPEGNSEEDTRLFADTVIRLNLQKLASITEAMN; partner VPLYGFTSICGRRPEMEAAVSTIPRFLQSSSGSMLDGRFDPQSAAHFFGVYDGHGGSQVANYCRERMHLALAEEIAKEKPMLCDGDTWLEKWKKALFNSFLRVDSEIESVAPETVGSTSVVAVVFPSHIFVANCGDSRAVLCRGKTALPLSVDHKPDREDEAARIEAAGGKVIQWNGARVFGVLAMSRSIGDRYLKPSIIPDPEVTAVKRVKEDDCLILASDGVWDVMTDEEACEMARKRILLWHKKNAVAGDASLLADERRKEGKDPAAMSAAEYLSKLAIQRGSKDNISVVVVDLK
Change,relative binding score
L8R,40.3%
Y18C,62.4%
F47T,-8.58%
V136H,33%
S26T,87.1%
N61M,82.7%
V137E,-12.6%
A30H,90.2%
I52A,88.6%
R32S,76.8%
R49Q,85.6%
R155L,69.7%
V40N,-12.1%
T17C,76.7%

# Series 5
# Target: Sal-like protein 4, full length isoform A (SALL4, Homo sapiens, UniProt Q9UJQ4, residues 1-1053)
# Chain of UniProt Q9UJQ4 (whole entry, looked up): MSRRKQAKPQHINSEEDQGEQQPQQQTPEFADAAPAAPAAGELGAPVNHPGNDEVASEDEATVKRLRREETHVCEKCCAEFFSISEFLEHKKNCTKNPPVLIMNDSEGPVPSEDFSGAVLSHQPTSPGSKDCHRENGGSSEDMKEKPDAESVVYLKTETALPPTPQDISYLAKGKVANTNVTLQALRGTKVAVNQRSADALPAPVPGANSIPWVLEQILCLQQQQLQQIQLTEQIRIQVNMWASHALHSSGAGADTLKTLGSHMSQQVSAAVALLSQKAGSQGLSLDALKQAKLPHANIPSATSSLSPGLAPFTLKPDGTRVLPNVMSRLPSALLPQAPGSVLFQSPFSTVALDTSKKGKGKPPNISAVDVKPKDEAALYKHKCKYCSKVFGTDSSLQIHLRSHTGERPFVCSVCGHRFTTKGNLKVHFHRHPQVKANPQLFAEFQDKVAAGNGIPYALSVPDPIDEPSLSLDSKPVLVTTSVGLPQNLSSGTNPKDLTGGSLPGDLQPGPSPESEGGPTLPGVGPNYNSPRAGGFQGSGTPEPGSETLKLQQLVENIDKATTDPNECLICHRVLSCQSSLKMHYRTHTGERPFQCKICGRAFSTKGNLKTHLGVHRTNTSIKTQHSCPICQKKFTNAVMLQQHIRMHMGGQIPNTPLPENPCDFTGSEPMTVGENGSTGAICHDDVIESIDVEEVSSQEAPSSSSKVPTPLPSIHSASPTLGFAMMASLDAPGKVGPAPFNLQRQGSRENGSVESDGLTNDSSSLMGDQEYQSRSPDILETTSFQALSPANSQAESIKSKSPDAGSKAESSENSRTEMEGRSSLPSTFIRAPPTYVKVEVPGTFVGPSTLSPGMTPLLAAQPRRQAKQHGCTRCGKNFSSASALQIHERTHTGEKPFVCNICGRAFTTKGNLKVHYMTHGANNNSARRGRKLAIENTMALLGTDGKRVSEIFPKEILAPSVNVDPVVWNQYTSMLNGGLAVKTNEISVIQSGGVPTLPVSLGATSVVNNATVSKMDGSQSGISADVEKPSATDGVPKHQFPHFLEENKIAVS
# Method: universal PBM
# Molecule type: double-stranded DNA, one strand shown
# Sample: in vitro
# Concentration: 600 nM
# Setting: 8-mer, flanks averaged, mean of replicates
# Direction: higher = stronger binding
Strand,E-score
AATTACGA,0.307
CCAGCCGA,-0.326
ATCAGTCG,0.038
ACGCGCGA,-0.192
CGCGGCTC,-0.283
AGCATCCA,-0.126
GAGTCGTA,0.0641
GAAAGTTA,0.111
ATCGAGTC,0.00834
ACTAAGGA,0.0874
GTCTAAAC,0.0754
CTTCCCAA,-0.0734
AAGCCGTG,-0.0572
TATGGAGA,0.228
AAATCACA,0.0197
GAATCGAA,0.18
ATGATTGG,0.154
CCCTTTAA,0.0228
CACTGCTG,-0.195
ACACCCTC,-0.106
AGCTCTTA,-0.124
CTTAGCGA,-0.0756
ATAAACAA,0.376
AGGAGGAG,-0.109
CGGCTCAC,-0.195

# Series 6
# Target: Ras GTPase-activating protein-binding protein 1, C-terminal RGG region (G3BP1, Homo sapiens, UniProt Q13283)
# Chain of UniProt Q13283 (whole entry, looked up): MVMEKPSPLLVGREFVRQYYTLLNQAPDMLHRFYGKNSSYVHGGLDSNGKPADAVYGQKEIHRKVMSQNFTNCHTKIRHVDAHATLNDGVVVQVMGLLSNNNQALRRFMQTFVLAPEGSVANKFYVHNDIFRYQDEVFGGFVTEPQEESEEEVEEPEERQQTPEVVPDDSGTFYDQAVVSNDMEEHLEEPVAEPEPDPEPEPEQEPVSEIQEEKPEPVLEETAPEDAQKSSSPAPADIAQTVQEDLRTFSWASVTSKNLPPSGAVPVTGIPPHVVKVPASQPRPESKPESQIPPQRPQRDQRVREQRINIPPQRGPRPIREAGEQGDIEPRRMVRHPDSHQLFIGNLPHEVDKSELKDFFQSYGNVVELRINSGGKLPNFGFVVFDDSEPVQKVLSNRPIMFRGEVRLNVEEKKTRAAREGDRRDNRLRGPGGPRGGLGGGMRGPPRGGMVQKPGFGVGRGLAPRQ
# Method: RNA Bind-n-Seq
# Molecule type: RNA
# Sample: in vitro
# Concentration: 1 µM
# Setting: whole 134-nt RNA, ends assumed
# Added: 150 mM KCl
# Reference: input library
# Direction: higher = stronger binding
# Constant ends, left off below: GGGAGUUCUACAGUCCGACGAUC … UGGAAUUCUCGGGUGUCAAGG
Strand,log2 enrichment
GUCCUGUGCUACACAUCGUAUGUACCGAAUCGGCCCCCCGGGCCCCCCGGGCCCCCCGGAAAGUAUUAUGUUACGCCGUUCGGAUCUGCA,-1.28
CCUGUGCUACACAUCGUAUGUACCGAAUCGGGGAAAAAGGGGAAAGGGGUUUUUUUGGGGAAAGUAUUAUGUUACGCCGUUCGGAUCUGC,1.15
CAAGUCCUGUGCUACACAUCGUAUGUACCGAAUCGGGGCCCGGGCCCGGGCCCGGGAAAGUAUUAUGUUACGCCGUUCGGAUCUGCACUU,-1.8
AAGUCCUGUGCUACACAUCGUAUGUACCGAAUCGGUUUUGGGUUUUGGGUUUUGGGAAAGUAUUAUGUUACGCCGUUCGGAUCUGCACUU,-1.29
UCAAGUCCUGUGCUACACAUCGUAUGUACCGAAUCGGGCCCGGGCCCGGGCCCGGAAAGUAUUAUGUUACGCCGUUCGGAUCUGCACUUC,-2.32
UCCUGUGCUACACAUCGUAUGUACCGAAUCGGGGUUUUUUGGUUUUUUGGGGUUUUUUGGAAAGUAUUAUGUUACGCCGUUCGGAUCUGC,-0.627
UGGGAGGUGGAUUUUGUUUAUUUUUUUAGCUCAUUUCAAGGGGUGGGAAUUUUUUUUUAAUAUGUGUCAUGAAUAAAGUUGUUUUUGAAA,3.9
GUCCUGUGCUACACAUCGUAUGUACCGAAUCGGGUUUUUGGGAAAGGGUUUUUUUGGGAAAGUAUUAUGUUACGCCGUUCGGAUCUGCAC,-0.0541
CAAGUCCUGUGCUACACAUCGUAUGUACCGAAUCGGGUGGGAGGGUUUUUUUGGGAAAGUAUUAUGUUACGCCGUUCGGAUCUGCACUUC,1.07
CACAGACAACACGCACCCACACAGACACAGAGGGAAGGGGUUGGGAUGGGGACAGGGUGCACAGCAUGGCGGGGUAGGACCCCAGCCCCU,-0.267
AGUCCUGUGCUACACAUCGUAUGUACCGAAUCGGGGUUUUGGGGUUUUGGGUUUUGGAAAGUAUUAUGUUACGCCGUUCGGAUCUGCACU,-0.906
UGGCCCUGGUGGCAUGCGGGGAGGAAGAGGUGGCCUCAUGGAUCGUGGUGGUCCCGGUGGAAUGUUCAGAGGUGGCCGUGGGGGAGACAG,3.39
CAAGUCCUGUGCUACACAUCGUAUGUACCGAAUCGGGAAAGGGAAAAAGGGAGGGAAAGUAUUAUGUUACGCCGUUCGGAUCUGCACUUC,1.87
GCAGGAAGUAAAAACAAAUGGAAAUGCUUCUGAUAGUGGCAGGGGUGGGGGUUGCUAAGGAAAGGGUGGGAUGGGAGUGGGUAAAGAGUU,1.46

# For quick reference, copied from above (series 1):
Strand,log fluorescence [z-score]
GACGGTATCCTTATCCTGTCGTGCTAG,0.207
GACGGTAACGGTTTCGGGACGTGCTAG,2.91
TTAGGTTTCGACACTGTGTTAGTGCTA,6.3
GAGGGTCTCGGACTGGGGACGTGCTAG,-0.363
AAGTGTTTGGTGTCTTTTGTGGTGCTA,0.0123
CTGGCCTGGGGTCTGCAGAGGTGCTAG,-0.803
TCACCTTTCTCAACCTCACTGTGCTAG,0.864
GACGGACTGCTTCTGCTGACGTGCTAG,-0.707
TCATTACTTTCTATCTCACTGTGCTAG,5.59
